Experimental data gathered from unrelated publications.
Each line is one published result; not all experiments were run side by side. ± gives the spread as reported.

Compound | assay | system | setting | endpoint | value
CC[C@H](C)[C@H](NC(=O)[C@H](Cc1ccccc1)NC(=O)[C@H](CCC(=O)O)NC(=O)[C@H](CCCNC(=N)N)NC(=O)[C@H](C)NC(=O)[C@H](C)NC(=O)[C@H](CCC(N)=O)NC(=O)[C@H](CCC(=O)O)NC(=O)[C@H](CCC(=O)O)NC(=O)[C@H](CC(C)C)NC(=O)[C@H](Cc1ccc(O)cc1)NC(=O)[C@H](CO)NC(=O)[C@H](CO)NC(=O)[C@@H](NC(=O)[C@H](CC(=O)O)NC(=O)[C@H](CO)NC(=O)[C@@H](NC(=O)[C@H](Cc1ccccc1)NC(=O)[C@@H](NC(=O)CNC(=O)[C@H](CCC(=O)O)NC(=O)[C@H](C)NC(=O)CCc1cnc[nH]1)[C@@H](C)O)[C@@H](C)O)C(C)C)C(=O)N[C@@H](C)C(=O)N[C@@H](Cc1c[nH]c2ccccc12)C(=O)N[C@@H](CC(C)C)C(=O)N[C@H](C(=O)N[C@@H](CCCNC(=N)N)C(=O)NCC(=O)N[C@@H](CCCNC(=N)N)C(=O)N[C@@H](CCCCNC(=O)COCCOCCNC(=O)COCCOCCNC(=O)CC[C@H](NC(=O)CCCCCCCCCCCCCCCCC(=O)O)C(=O)O)C(=O)NCC(=O)NCC(=O)N[C@@H](CO)C(=O)N[C@@H](CCCCNC(=O)[C@H](CCCCNc1c(NCCCCCN(O)C(=O)CCC(=O)NCCCCCN(O)C(=O)CCC(=O)NCCCCCN(O)C(C)=O)c(=O)c1=O)Nc1c(NCCCCCN(O)C(=O)CCC(=O)NCCCCCN(O)C(=O)CCC(=O)NCCCCCN(O)C(C)=O)c(=O)c1=O)C(=O)O)C(C)C [zirconium-89 labelled] | ex vivo gamma counting | male Sprague-Dawley rats, liver | intravenous, 1 nmol, 24 h | tissue uptake | 1.82 %ID/g
COC[C@]12CN(C)[C@@H]3[C@@H]4[C@H](OC)[C@H]1[C@@]3([C@@H](OC)C[C@H]2O)[C@@H]1C[C@@]2(O)[C@H](OC(=O)c3ccccc3)[C@@H]1[C@]4(OC(C)=O)[C@@H](O)[C@@H]2OC |  | Sprague-Dawley rat, plasma | oral, dose not given, with NADES in PCW extract | MRT(0-t) | 2.67 ± 0.245 h
C[C@]1(O)C[C@@](N)(c2ccc(-c3nc4n(c3-c3ccccc3)COc3ccncc3-4)cc2)C1 |  | human, advanced or metastatic solid tumours | 28 mg intermittent, phase I dose escalation | patients with Nausea TEAE | 33.3%
C[C@@H]1OC(=O)NN=C1c1ccc(-c2ccc(F)cc2)c(C(F)(F)F)c1 | phase I trial, measured: Nausea worst grade 1 | human patients | dose not given, all dose groups | patients with adverse event | 40%
CO[C@H]1C[C@@H]2CC[C@@H](C)[C@@](O)(O2)C(=O)C(=O)N2CCCC[C@H]2C(=O)O[C@H]([C@H](C)C[C@@H]2CC[C@@H](OC(=O)NCCOCCOCCOCCOCCOCCOCCOCCOCCC(=O)N3CCc4cc(Cn5nc(-c6ccc7oc(N)nc7c6)c6c(N)ncnc65)ccc4C3)[C@H](OC)C2)C[C@@H](O)[C@H](C)/C=C(\C)[C@@H](O)[C@@H](OC)C(=O)[C@H](C)C[C@H](C)/C=C/C=C/C=C/1C |  | patients with advanced solid tumours | intravenous, 1.6 mg/3 mg weekly, any grade | Mucositis AE leading to dose reduction | 0%
CC1(C)[C@H](C(=O)O[C@H](C#N)c2cccc(Oc3ccccc3)c2)[C@@H]1C=C(Br)Br | measured: CYP3A4 | human, age 1 year, recombinant human CYP3A4 | 0.1 µM | enzyme contribution to clearance | 0.62%
COc1ccc(C[C@@H]2NC(=O)[C@H]([C@@H](C)O)NC(=O)[C@@H]3[C@@H]4CCN3C(=O)[C@@H]3Cc5cn(c6ccc(F)cc56)CCCCCCN(Cc5ccc(cc5)CCNC(=O)[C@]5(C)CCCN5C2=O)C(=O)CCC(=O)N[C@@H](C)C(=O)N[C@H](CNC(=O)CCCCC[N+](C)(C)C)C(=O)N[C@@H](Cc2cccc(c2)CNC(=O)CO4)C(=O)N3)cc1 | measured: Wound | humans | concentration not given, Study-001 | participants with adverse event | 2%
COc1cc2c(Oc3ccc4[nH]c(C)cc4c3F)ccnc2cc1OCC1(N)CC1 |  | paediatric refractory sarcoma patients | 10 mg | grade 3 QTc prolongation | 0%
[O-][S+]1CCc2nc(N3CCC(c4ncc(Cl)cn4)CC3)nc(NC3(CO)CCC3)c21 (centres unmarked) | measured: mean | idiopathic pulmonary fibrosis patients, urine | 18 mg twice daily, at last treatment | urine pH | 5.6
O[C@H]1CCCN[C@@H]1CCCn1cnc2c(Cl)c(Cl)ccc21 |  | healthy volunteers, plasma | oral, 150 mg twice daily, added: pirfenidone 600 mg | Cmax,ss geometric LS mean | 0.288 µg/mL
CC1(C)CN(CCCCC(=O)N[C@H](Cc2ccc(O)c(I)c2)C(=O)N[C@H](Cc2ccccc2)C(=O)N[C@H](CCCCNC(=O)CCCCCCC(=O)NCCCC[C@H](NC(=O)N[C@@H](CCC(=O)O)C(=O)O)C(=O)O)C(=O)O)CC[N]2CC(C)(C)[S][Tc]2(=[O])[S]1 (some centres unmarked) [technetium-99m labelled] | radio-HPLC | saline | 20 h, 25 °C | intact fraction | 17%
COc1cc2c(cc1OC)CN(CCc1ccc(NC(=O)c3cccc4c(=O)c5cccc(OC)c5[nH]c34)cc1)CC2 |  | CD-1 mouse, male, plasma | intraperitoneal, 10 mg/kg | half-life | 13.9 h
CC[C@H](C)[C@H](N)C(=O)N[C@@H](CCCNC(=N)N)C(=O)N[C@H](C(=O)N[C@@H](Cc1c[nH]c2ccccc12)C(=O)N[C@@H](Cc1c[nH]c2ccccc12)C(=O)N[C@@H](CCCCN)C(=O)N[C@H](C(=O)N[C@H](C(=O)N[C@@H](CCCNC(=N)N)C(=O)N[C@@H](CCCCN)C(=O)N[C@@H](Cc1c[nH]c2ccccc12)C(=O)N[C@@H](CCCCN)C(=O)N[C@@H](C)C(=O)N[C@H](C(=O)N[C@@H](Cc1c[nH]c2ccccc12)C(=O)N[C@@H](Cc1c[nH]cn1)C(N)=O)[C@@H](C)CC)C(C)C)[C@@H](C)CC)C(C)C | reversed-phase UPLC | C18 column, TFA |  | elution acetonitrile content | 48.9%
O=C(O)CCS(=O)(=O)O |  | human | oral, 265 mg twice daily, 2 h post-dose, week 65 | plasma concentration | 0.322 µg/mL

Repeated from above:
Compound | assay | system | setting | endpoint | value
CC[C@H](C)[C@H](N)C(=O)N[C@@H](CCCNC(=N)N)C(=O)N[C@H](C(=O)N[C@@H](Cc1c[nH]c2ccccc12)C(=O)N[C@@H](Cc1c[nH]c2ccccc12)C(=O)N[C@@H](CCCCN)C(=O)N[C@H](C(=O)N[C@H](C(=O)N[C@@H](CCCNC(=N)N)C(=O)N[C@@H](CCCCN)C(=O)N[C@@H](Cc1c[nH]c2ccccc12)C(=O)N[C@@H](CCCCN)C(=O)N[C@@H](C)C(=O)N[C@H](C(=O)N[C@@H](Cc1c[nH]c2ccccc12)C(=O)N[C@@H](Cc1c[nH]cn1)C(N)=O)[C@@H](C)CC)C(C)C)[C@@H](C)CC)C(C)C | reversed-phase UPLC | C18 column, TFA |  | elution acetonitrile content | 48.9%
O=C(O)CCS(=O)(=O)O |  | human | oral, 265 mg twice daily, 2 h post-dose, week 65 | plasma concentration | 0.322 µg/mL
